# Published values collected from several papers.
# Protocols differ between the studies behind these lines. Numbers after ± are the reported error.
# Chain of UniProt Q06418 (whole entry, looked up): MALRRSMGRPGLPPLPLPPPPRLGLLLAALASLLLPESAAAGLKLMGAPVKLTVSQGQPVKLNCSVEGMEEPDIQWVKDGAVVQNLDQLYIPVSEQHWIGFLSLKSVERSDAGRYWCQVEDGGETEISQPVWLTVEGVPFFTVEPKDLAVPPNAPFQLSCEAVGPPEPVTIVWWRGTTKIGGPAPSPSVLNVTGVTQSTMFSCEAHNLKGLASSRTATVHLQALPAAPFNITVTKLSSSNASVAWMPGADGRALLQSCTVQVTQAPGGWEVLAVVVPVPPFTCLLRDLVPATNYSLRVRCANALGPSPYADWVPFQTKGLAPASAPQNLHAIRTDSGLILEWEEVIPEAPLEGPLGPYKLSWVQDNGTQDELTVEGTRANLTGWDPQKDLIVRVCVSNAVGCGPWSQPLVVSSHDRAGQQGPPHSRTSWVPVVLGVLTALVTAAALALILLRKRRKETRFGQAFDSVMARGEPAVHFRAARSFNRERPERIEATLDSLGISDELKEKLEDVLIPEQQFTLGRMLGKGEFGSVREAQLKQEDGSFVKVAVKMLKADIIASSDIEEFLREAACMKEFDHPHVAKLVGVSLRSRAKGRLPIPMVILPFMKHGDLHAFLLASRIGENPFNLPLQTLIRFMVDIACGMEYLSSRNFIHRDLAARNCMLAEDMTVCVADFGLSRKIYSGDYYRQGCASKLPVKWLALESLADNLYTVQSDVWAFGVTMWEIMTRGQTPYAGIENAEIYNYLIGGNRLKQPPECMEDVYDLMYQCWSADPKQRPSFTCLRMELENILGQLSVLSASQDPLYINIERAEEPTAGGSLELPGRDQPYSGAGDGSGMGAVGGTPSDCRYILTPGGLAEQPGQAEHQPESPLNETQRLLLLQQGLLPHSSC
# Chain of UniProt Q8IWQ3 (whole entry, looked up): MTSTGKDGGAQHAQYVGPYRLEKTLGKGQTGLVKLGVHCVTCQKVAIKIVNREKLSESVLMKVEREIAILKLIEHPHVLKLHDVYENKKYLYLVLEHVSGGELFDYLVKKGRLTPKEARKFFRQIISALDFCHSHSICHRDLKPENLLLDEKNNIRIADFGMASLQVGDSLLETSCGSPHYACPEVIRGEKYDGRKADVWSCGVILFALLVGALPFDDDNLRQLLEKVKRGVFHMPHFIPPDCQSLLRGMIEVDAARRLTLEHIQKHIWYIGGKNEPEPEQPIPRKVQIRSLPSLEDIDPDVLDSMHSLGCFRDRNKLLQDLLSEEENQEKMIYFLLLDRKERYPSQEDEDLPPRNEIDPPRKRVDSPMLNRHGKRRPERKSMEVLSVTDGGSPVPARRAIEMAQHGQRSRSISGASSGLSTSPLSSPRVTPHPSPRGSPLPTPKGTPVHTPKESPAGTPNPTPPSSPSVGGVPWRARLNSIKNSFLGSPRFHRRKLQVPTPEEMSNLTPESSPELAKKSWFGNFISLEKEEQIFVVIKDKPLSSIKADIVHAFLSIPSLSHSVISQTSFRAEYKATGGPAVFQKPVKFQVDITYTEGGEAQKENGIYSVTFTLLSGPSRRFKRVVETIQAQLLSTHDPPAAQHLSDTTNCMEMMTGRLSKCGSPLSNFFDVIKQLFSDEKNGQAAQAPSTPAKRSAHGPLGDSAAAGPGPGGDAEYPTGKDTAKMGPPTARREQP
# Chain of UniProt P32247 (whole entry, looked up): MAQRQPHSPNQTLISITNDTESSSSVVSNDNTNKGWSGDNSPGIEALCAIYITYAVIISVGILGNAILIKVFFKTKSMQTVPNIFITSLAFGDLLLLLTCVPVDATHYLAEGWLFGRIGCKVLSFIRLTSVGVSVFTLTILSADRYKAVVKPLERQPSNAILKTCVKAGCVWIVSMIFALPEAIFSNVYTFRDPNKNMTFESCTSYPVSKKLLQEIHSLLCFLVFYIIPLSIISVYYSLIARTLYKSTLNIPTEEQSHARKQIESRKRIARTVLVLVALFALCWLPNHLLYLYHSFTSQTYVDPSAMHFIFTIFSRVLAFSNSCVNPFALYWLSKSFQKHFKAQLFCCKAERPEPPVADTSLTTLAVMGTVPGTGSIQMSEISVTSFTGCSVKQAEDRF
# Chain of UniProt Q86UX6 (whole entry, looked up): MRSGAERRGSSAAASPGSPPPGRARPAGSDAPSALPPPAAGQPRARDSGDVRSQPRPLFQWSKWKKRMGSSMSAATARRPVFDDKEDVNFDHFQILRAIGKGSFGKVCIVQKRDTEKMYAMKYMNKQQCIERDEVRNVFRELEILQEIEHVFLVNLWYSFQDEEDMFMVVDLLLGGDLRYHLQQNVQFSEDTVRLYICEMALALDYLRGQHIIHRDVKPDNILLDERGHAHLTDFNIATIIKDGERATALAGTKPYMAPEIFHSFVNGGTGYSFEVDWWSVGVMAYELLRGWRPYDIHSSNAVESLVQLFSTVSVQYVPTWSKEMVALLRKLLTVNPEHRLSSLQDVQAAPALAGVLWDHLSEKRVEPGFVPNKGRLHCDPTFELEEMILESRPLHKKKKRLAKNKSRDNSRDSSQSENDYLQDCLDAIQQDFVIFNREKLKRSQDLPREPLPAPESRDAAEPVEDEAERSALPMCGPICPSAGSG
# Chain of UniProt P22303 (whole entry, looked up): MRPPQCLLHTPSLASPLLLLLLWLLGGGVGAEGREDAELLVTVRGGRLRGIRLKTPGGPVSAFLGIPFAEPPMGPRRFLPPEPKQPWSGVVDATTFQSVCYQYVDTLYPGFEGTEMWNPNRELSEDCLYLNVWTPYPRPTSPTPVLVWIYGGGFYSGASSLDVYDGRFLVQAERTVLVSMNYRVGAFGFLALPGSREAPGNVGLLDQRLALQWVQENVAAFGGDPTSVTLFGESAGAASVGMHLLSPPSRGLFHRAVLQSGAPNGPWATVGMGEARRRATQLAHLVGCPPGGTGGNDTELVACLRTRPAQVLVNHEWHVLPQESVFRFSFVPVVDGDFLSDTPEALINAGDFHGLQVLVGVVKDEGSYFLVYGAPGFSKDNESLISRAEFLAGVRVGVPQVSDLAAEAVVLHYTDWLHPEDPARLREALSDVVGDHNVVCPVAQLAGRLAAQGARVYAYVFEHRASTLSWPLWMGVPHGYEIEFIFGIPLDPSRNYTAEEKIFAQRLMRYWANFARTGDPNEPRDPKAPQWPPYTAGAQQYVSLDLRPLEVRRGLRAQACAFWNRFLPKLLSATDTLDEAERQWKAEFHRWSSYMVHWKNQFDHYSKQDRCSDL
# Chain of UniProt P16591 (whole entry, looked up): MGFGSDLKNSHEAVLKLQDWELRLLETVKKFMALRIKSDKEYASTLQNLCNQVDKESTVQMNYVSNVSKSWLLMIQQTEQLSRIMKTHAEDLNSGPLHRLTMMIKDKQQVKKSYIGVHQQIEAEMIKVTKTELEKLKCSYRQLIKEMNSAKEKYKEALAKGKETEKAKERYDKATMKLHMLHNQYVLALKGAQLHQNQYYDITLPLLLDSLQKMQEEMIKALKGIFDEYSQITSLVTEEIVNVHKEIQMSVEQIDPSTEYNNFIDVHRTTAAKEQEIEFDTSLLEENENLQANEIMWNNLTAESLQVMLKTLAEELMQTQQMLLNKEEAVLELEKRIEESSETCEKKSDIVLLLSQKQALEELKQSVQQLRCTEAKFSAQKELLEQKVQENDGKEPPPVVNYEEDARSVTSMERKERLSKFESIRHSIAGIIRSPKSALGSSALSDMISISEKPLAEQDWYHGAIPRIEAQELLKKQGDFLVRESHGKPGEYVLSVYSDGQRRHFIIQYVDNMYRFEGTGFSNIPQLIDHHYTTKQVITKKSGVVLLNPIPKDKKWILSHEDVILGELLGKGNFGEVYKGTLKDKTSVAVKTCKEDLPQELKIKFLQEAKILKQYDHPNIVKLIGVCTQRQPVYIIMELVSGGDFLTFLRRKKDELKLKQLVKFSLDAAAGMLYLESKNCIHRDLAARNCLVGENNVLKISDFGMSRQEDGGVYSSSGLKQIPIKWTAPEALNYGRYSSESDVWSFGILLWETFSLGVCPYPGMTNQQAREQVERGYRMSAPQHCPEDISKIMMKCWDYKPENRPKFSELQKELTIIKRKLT
# Chain of UniProt Q16288 (whole entry, looked up): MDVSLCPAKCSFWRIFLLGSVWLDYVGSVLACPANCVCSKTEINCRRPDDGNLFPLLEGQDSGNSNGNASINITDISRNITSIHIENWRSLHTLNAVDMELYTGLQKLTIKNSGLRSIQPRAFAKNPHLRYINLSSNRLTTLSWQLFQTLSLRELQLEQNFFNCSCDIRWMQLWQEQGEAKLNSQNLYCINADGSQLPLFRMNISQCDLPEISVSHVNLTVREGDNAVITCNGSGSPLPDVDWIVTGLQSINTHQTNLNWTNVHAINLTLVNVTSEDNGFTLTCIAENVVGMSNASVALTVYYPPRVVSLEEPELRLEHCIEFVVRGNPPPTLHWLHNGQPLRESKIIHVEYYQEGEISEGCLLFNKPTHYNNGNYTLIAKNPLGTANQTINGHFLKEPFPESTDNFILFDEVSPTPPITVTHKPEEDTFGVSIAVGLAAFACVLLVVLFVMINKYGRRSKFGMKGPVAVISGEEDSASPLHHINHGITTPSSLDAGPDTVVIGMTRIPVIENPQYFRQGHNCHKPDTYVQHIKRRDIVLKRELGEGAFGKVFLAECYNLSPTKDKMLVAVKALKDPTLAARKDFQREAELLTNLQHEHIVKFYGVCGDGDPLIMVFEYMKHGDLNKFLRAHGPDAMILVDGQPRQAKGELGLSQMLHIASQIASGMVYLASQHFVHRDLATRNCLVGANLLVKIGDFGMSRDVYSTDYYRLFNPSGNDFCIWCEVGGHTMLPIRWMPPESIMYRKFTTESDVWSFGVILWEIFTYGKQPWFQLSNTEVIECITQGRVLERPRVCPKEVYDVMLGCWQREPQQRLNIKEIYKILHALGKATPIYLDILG
Structure (SMILES),tested on,test,test system,conditions,endpoint,value
CCCCCCCCCCCCCCCCCC(=O)NC[C@H]1CC[C@H](C(=O)N[C@@H](CCC(=O)NCCCOCCOCCOCCCNC(=O)COCC(=O)N[C@@H](Cc2ccc(O)cc2)C(=O)NC(C)(Cc2ccccc2)C(=O)N[C@@H](CC(C)C)C(=O)N[C@@H](CCCC)C(=O)N[C@@H](CCCNC(=N)N)C(=O)N2CCC[C@H]2C(=O)N[C@@H](CCCNC(=N)NC)C(=O)N[C@@H](CC(N)=O)C(N)=O)C(=O)O)CC1 (stereo partly shown),"BRS3 (Homo sapiens, UniProt P32247)","antagonist, DiscoverX GPCR panel",,1 µM,inhibition,64%
C[C@H](NCc1ccc(-c2ccc(C(F)(F)F)cc2)cc1)C(N)=O,"MKNK2 (Homo sapiens, UniProt Q9HBH9)","cell-free assay, competition with immobilised ligand",,1 µM,inhibition,15%
CC1CCN(C(=O)c2cccc(NC(=O)Nc3ccccc3)c2)CC1,"Beta-lactam-inducible penicillin-binding protein (pbp, Staphylococcus aureus, UniProt P07944)","Bocillin-FL labelling, fluorescence polarization",,50 µM,inhibition,no inhibition
CN(C)[C@H]1C[C@@]23CC[C@@]4(O2)C(=CC[C@]2(C)[C@@H](c5ccc6ccncc6c5)CC[C@H]24)C=C3[C@@H](O)[C@@H]1O,"FER (Homo sapiens, UniProt P16591)","ATP probe labelling, inhibitor, KiNativ profiling",,0.1 µM,inhibition,-2%
CN[C@@H]1[C@H](O)[C@H](NC)[C@H]2O[C@]3(O)[C@H](O[C@@H]2[C@H]1O)O[C@H](C)C[C@H]3NC(=O)Cc1ccc(Cl)cn1,"PTAFR (Homo sapiens, UniProt P25105)","ligand displacement, radioligand",,10 µM,inhibition,2%
CC(C)[C@H]1NC(=O)C[C@H]2/C=C/CCSSC[C@@H](NC1=O)C(=O)N[C@H](Cc1cccc3ccccc13)C(=O)NCC(=O)O2,"MAP3K3 (Homo sapiens, UniProt Q99759)",,,10 µM,inhibition,2.6%
Cc1cc(-c2ccc3ccccc3c2)nnc1NCCN1CCN(C)CC1,"SLC22A1 (Homo sapiens, UniProt O15245)",transport,,concentration not given,inhibition,negative
Cc1cnc(C2CCOCC2)n1C1CCN(C(=O)Nc2ccccc2F)CC1,"Cholinesterase (BCHE, Homo sapiens, UniProt P06276)","enzyme activity, inhibitor, Ellman",,10 µM,inhibition,27.8%
COc1ccc(F)cc1S(=O)(=O)Nc1cnc2c(c1)C(=O)NCCO2,"CYSLTR1 (Homo sapiens, UniProt Q9Y271)","ligand displacement, radioligand",,10 µM,inhibition,0%
CN(/N=C/c1ccccc1C(=O)O)c1nc(-c2ccccc2Cl)cs1,"BRSK2 (Homo sapiens, UniProt Q8IWQ3)","enzyme activity, inhibitor",,1 µM,inhibition,-15.8%
CN[C@@H]1[C@H](O)[C@H](NC)[C@H]2O[C@]3(O)[C@H](O[C@@H]2[C@H]1O)O[C@H](C)C[C@H]3NC(=O)Cc1cc(Cl)ccn1,"Interleukin-1 receptor type 1 (Il1r1, Mus musculus, UniProt P13504)",,,10 µM,inhibition,-1%
O=C1NC2(CC2)COc2ncc(F)cc2[C@H]2COCCN2c2ccn3ncc1c3n2,,,"Sprague-Dawley rat, male, kidneys","oral, 10 mg/kg/day, 4 weeks, end of treatment",organ-to-body weight ratio,0.779 ± 0.202%
Cc1ccc2c(n1)c(-c1cccc(S(C)(=O)=O)c1)c(C)n2C/C(F)=C/CN,"AGTR1 (Homo sapiens, UniProt P30556)","ligand displacement, radioligand",,10 µM,inhibition,1%
CCCCNC(=O)c1ccc2nc(CC)c(N(C)Cc3ccc(OC)cc3)n2c1,"ACHE (Homo sapiens, UniProt P22303)","enzyme activity, inhibitor",SH-SY5Y,1.5 × IC50,inhibition,60%
O=C(O)c1ccccc1/C=N/Nc1nc(-c2ccccc2Cl)cs1,"NTRK3 (Homo sapiens, UniProt Q16288)","enzyme activity, inhibitor",,1 µM,inhibition,-5.12%
N#Cc1ccc(N2N=C3c4ccc(C(=O)O)cc4CCC3C2C2CCCC2)cc1Cl (stereo not shown),"EZH2 (Homo sapiens, UniProt Q15910)","enzyme activity, inhibitor",,10 µM,inhibition,12%
O=C(N1CCCCC1)n1ccnn1,"Neutral cholesterol ester hydrolase 1 (Mus musculus, UniProt Q8BLF1)","probe labeling, inhibitor, gel-based competitive ABPP",mouse T-cell proteome,"1 µM, 30 min, 37 °C",inhibition,< 50%
CS(C)(=O)=Nc1ccc(-c2ccc(-c3nc4cc(O[C@@H]5CO[C@H]6[C@@H]5OC[C@H]6O)[nH]c4cc3F)cc2)cc1,"TYRO3 (Homo sapiens, UniProt Q06418)","enzyme activity, inhibitor",,10 µM,inhibition,-6%
N[C@H](C(=O)N1CCCC1)C1CCN(c2nccc3c(-c4ncc(Cl)cc4Cl)cccc23)CC1,"CRHR1 (Homo sapiens, UniProt P34998)","functional response, antagonist",,10 µM,inhibition,1%
CCC1CC(c2ccc(C(=O)O)cc2C)=NN1c1ccc(C#N)c(Cl)c1 (stereo not shown),"NSD2 (Homo sapiens, UniProt O96028)","enzyme activity, inhibitor",,10 µM,inhibition,32%
O=C(CN1CN(c2ccccc2)C2(CCN(C(=O)c3cnc4[nH]ncc4c3)CC2)C1=O)NCC(F)(F)F,"PNCK (Homo sapiens, UniProt Q6P2M8)",inhibitor,,concentration not given,inhibition,< 50%
C=CC(=O)Nc1cc(-c2nn(C3CCC(N4CCN(C(C)=O)CC4)CC3)c3ncnc(N)c23)ccc1Oc1ccccc1 (stereo not shown),"STK32C (Homo sapiens, UniProt Q86UX6)","inhibitor, KiNativ profiling",biochemical,2 µM,inhibition,-10.8%

# Excerpt of the above:
Structure (SMILES),tested on,test,test system,conditions,endpoint,value
CN(C)[C@H]1C[C@@]23CC[C@@]4(O2)C(=CC[C@]2(C)[C@@H](c5ccc6ccncc6c5)CC[C@H]24)C=C3[C@@H](O)[C@@H]1O,"FER (Homo sapiens, UniProt P16591)","ATP probe labelling, inhibitor, KiNativ profiling",,0.1 µM,inhibition,-2%
CN[C@@H]1[C@H](O)[C@H](NC)[C@H]2O[C@]3(O)[C@H](O[C@@H]2[C@H]1O)O[C@H](C)C[C@H]3NC(=O)Cc1cc(Cl)ccn1,"Interleukin-1 receptor type 1 (Il1r1, Mus musculus, UniProt P13504)",,,10 µM,inhibition,-1%
CS(C)(=O)=Nc1ccc(-c2ccc(-c3nc4cc(O[C@@H]5CO[C@H]6[C@@H]5OC[C@H]6O)[nH]c4cc3F)cc2)cc1,"TYRO3 (Homo sapiens, UniProt Q06418)","enzyme activity, inhibitor",,10 µM,inhibition,-6%
O=C(CN1CN(c2ccccc2)C2(CCN(C(=O)c3cnc4[nH]ncc4c3)CC2)C1=O)NCC(F)(F)F,"PNCK (Homo sapiens, UniProt Q6P2M8)",inhibitor,,concentration not given,inhibition,< 50%
